Published values gathered from unrelated publications.
Each line is one published result; not all experiments were run side by side. ± marks the error that the study gave.
Cell line: HepG2

SMILES | assay | conditions | IC50
O=C1Nc2ccccc2/C1=N/c1ccccc1C(=O)Nc1ccccc1 | cell growth or viability, MTT | 24 h | 16 µM
CC[C@@]1(C)CC[C@H]2[C@@](C)(CC[C@@]3(C)[C@@H]4CC(C)(C)CC[C@]4(C)CC[C@]23C)[C@@H]1CCC(=O)O | cell growth or viability, SRB |  | 19.6 µM
CC(=O)OC[C@H]1O[C@@H](Sc2nc3c4cnn(C(=O)CNc5ccc(C)cc5)c4ncn3n2)[C@H](OC(C)=O)[C@@H](OC(C)=O)[C@@H]1OC(C)=O | cell growth or viability, MTT | 48 h | 0.048 µM
N#Cc1cccc(-c2ccc(=O)n(Cc3cccc(-c4ncc(OCC5CCN(CCCCC(=O)Nc6ccc7c(c6)C(=O)N(C6CCC(=O)NC6=O)C7=O)CC5)cn4)c3)n2)c1 (stereo not drawn) | cell growth or viability, CCK-8 | 72 h | 2.47 µM
CC(=O)OC[C@H]1O[C@@H](N2C(=O)/C(=C/c3ccc4c(c3)OCCO4)SC2=S)[C@H](OC(C)=O)[C@@H](OC(C)=O)[C@@H]1OC(C)=O | cell growth or viability, MTT | 48 h | 11.3 µM
CS/C(=N\N=C(/C)c1ccc(S(=O)(=O)N2CCC(C)CC2)cc1)N1CCCCC1 | cell growth or viability, MTT |  | 33.9 µM
COc1ccc2nc(Cl)c(-c3nc4cc(C)c(C)cc4[nH]3)cc2c1 | cell growth or viability, MTT | 48 h | 37.8 µM
COC(=O)C(NC(=O)CNC(=O)CNC(=O)COc1ccc2c(C)cc(=O)oc2c1)c1ccccc1 (stereo in doubt) | cell growth or viability, MTT |  | 221 µM
CC(C)=C1CC[C@]2(COC(=O)c3ccccc3)[C@@H](OC(=O)c3ccccc3)/C=C(\C)CC[C@@H]3O[C@@]3(C)C[C@@H](OC(=O)c3cccnc3)[C@@H]12 | cell growth or viability, CCK-8 | 24 h | > 50 µM
CCC1=C(CC)C2=[N+]3C1=Cc1c(CC)c(CC)c4[n]1[Ir-3]31([n+]3ccccc3)([n+]3ccccc3)[n]3c(c(CC)c(CC)c3=CC3=[N+]1C(=C4)C(CC)=C3CC)=C2.Cl | cell growth or viability, MTT | 72 h | 1.32 µM
C[C@]12CC[C@@H]3c4ccc(O)cc4CC[C@H]3[C@@H]1CC[C@@]2(O)c1cn(CC(=O)c2ccc(Cl)cc2)nn1 | cell growth or viability, resazurin | 72 h | 17.8 µM
CC(=O)N[C@@H]1[C@@H](OC(C)=O)[C@H](OC(C)=O)[C@@H](COC(C)=O)O[C@H]1Sc1nnc(-c2cc3ccccc3[nH]2)n1-c1ccc(Cl)cc1 | cell growth or viability, MTT |  | 16.9 µM
Cc1cc(/C=C/C#N)cc(C)c1Oc1cc(Nc2ccc(C#N)cn2)nc2ccncc12 |  | 48 h | > 120 µM
COc1ccccc1/C=N/NC(=O)c1cc2cc(Nc3nccc(-c4cccnc4)n3)ccc2[nH]1 | cell growth or viability, MTT | 48 h | 10.9 µM
CCOC(=O)CS/C(Nc1ccccc1)=C(\C#N)C(=O)Nc1nnc(NC(=O)c2ccccc2)s1 | cell growth or viability, MTT | 48 h | 52.9 µM
Cc1cc(C#N)cc(C)c1Oc1cc(Nc2ccc(C#N)cc2)nc2ccncc12 |  | 48 h | > 128 µM
COc1ccc(CS(=O)(=O)c2ccc3ccccc3c2)cc1NCC(=O)O | cell growth or viability, MTS | 48 h | 0.993 µM
COc1cc(/C=C/C(=O)C(Cc2ccc(O)c(OC)c2)C(=O)/C=C/c2ccc(O)c(OC)c2)ccc1O | cell growth or viability, MTT | 48 h | 6.74 µM
COc1cc(/C=C/C(=O)/C=C/c2cn(-c3ccccc3)nc2C(=O)O)cc(OC)c1OC | cell growth | 72 h | > 25 µM
C/C(=N\N=C(SCc1ccccc1)SCc1ccccc1)c1ccc(S(=O)(=O)N2CCC(C)CC2)cc1 | cell growth or viability, MTT |  | 24.4 µM

SMILES | assay | conditions | IC50
N#Cc1c(F)c(F)c2nc(SCc3ccccc3)nc(N)c2c1F | cell growth or viability, MTT | 96 h | 12.2 µM
COC1=C(OC)C(O)C(CC=C(C)CCC=C(C)CCC=C(C)C(=O)O)C(C)C1=O (stereo not drawn) | cell growth or viability, MTS | 72 h | > 25 µM
C=C(CO)C(=O)O[C@H]1CC(=C)[C@@H]2C[C@H](O)[C@](O)(CCl)[C@@H]2[C@H]2OC(=O)C(=C)C12 (stereo partly drawn) | cell growth or viability |  | 5 µg/mL
COc1ccc(C(c2c[nH]c3ccc(OC)cc23)c2c[nH]c3ccc(OC)cc23)cc1 | cell growth or viability, MTT | 24 h | 8.27 µM
NC(=O)c1ccc(-c2ccccc2F)c2c3c([nH]c12)CCCC3 | cell growth or viability |  | > 10 µM
CC1(C)CC[C@]2(C(=O)O)CC[C@]3(C)C(=CC[C@@H]4[C@@]5(C)CC[C@H](O[C@@H]6OC[C@H](O)[C@H](O)[C@H]6O)[C@@](C)(CO)[C@@H]5CC[C@]43C)[C@@H]2C1 | NF-κB activity, inhibitor, luciferase | TNF-stimulated | 7.5 µM
COc1ccc2nc(Cl)c(-c3nc4ccccc4[nH]3)cc2c1 | cell growth or viability, MTT | 48 h | 22.4 µM
COc1cc(OC)c(C(C)=O)c(OC)c1 | cell growth or viability, MTT | 48 h | 40.9 µM
NC(=S)NNC(=O)c1cc2c(ccc3ccccc32)oc1=O | cell growth or viability, SRB | 72 h | 6.9 µM
CCCCSc1nc(N)c2c(F)c(F)c(C#N)c(F)c2n1 | cell growth or viability, MTT | 96 h | 51.8 µM
Cc1cc(CN2CCC(CCCCCCC(=O)NO)CC2)cc(C)c1-c1ncn(C)c1-c1ccc(C#N)c2ccccc12 | cell growth or viability, MTT | 72 h | 0.05 µM
CCN(CC)c1ccc2c(c1)[O][Pt-2]1([Cl])[N+](=C2)c2ccccc2[NH+]1c1ccccc1 (stereo not drawn) | cell viability, MTT | 48 h | 14.8 ± 0.18 µM
c1ccc(CCCNc2ncnc3cc(OCC4CCN(CCNc5ccnc6ccccc56)CC4)ccc23)cc1 | cell growth or viability, ATP luminescence | 72 h | 1.4 µM
C=CC(OC(C)=O)c1ccc(OC)cc1 (stereo not drawn) | MTT | 24 h | > 50 µM
O=c1cc(-c2ccc(O)c(O)c2)oc2cc(O[C@@H]3O[C@H](CO)[C@@H](O)[C@H](O)[C@H]3O)cc(O)c12 | cell growth or viability, MTT | 24 h | 34.4 µg/mL
COc1ccc2c(c1)OCc1c-2oc2cc3c(cc12)OCO3 | cell growth or viability, MTT | 72 h | 25.4 µM
Nc1ccccc1NC(=O)c1ccc(Nc2nccc(-c3cn(C4CCCC4)nn3)n2)cc1 | cell growth or viability, SRB | 72 h | 3 µM
F[P-](F)(F)(F)(F)F.O=C(CCC(=O)[c-]1cccc1)NCCN(CC(=O)Nc1ccc(C#CCN(Cc2ccccn2)Cc2ccccn2)cc1)C(=O)CCc1cn(Cc2ccccc2)nn1.[C-]#[O+].[C-]#[O+].[C-]#[O+].[C-]#[O+].[C-]#[O+].[C-]#[O+].[Mn+].[Re+] | cell growth or viability, resazurin | 48 h | > 100 µM
CC(=O)[O-].O.O.[O-]c1ccc(Br)cc1C=NCCN1CCOCC1.[Zn+2] | cell viability, MTT | 72 h | 33.5 µg/mL
O=C(/C=C/c1ccc(O)cc1)OCCCC[P+](c1ccccc1)(c1ccccc1)c1ccccc1 | cell growth or viability, SRB | 24 h | 26.8 µM

SMILES | assay | conditions | IC50
Cc1c(C(=O)NNC(=O)Nc2ccc([N+](=O)[O-])cc2)nnn1Cc1nc2ccccc2[nH]1 | cell viability, MTT | 48 h | 21 to 50 µM
Clc1cc2nc(-c3cc4ccccc4nc3Cl)[nH]c2cc1Cl | cell growth or viability, MTT | 48 h | 7.59 µM
N#Cc1cccc(-c2ccc(=O)n(Cc3cccc(-c4ncc(OCC5CCN(CC(=O)NCCOCCNc6cccc7c6C(=O)N(C6CCC(=O)NC6=O)C7=O)CC5)cn4)c3)n2)c1 (stereo not drawn) | cell growth or viability, CCK-8 | 72 h | 10.7 µM
COc1cc(/C=C/C(=O)NCCCCCCNC2=C3C[C@@H](C)C[C@H](OC)[C@H](O)[C@@H](C)/C=C(\C)[C@H](OC(N)=O)[C@@H](OC)/C=C\C=C(/C)C(=O)NC(=CC2=O)C3=O)ccc1O | cell growth or viability, MTT | 72 h | 0.472 µM
Oc1ccc2c(c1)[O][Pt-2]1([Cl])[N+](=C2)c2ccccc2[NH+]1c1ccccc1 (stereo not drawn) | cell viability, MTT | 48 h | 63.9 ± 6.44 µM
Cc1ccc(C(c2c[nH]c3ccccc23)c2c[nH]c3ccccc23)cc1 | cell growth or viability, MTT | 24 h | 7.18 µM
COc1cccc2c1C(=O)c1c(O)c3c(c(O)c1C2=O)CC(O)(C(=O)CO)CC3OC1CC(NC(=O)C[C@H](N)C(=O)O)C(O)C(C)O1 (stereo partly drawn) | cell growth or viability, MTT | 48 h | < 10 µg/mL
N#Cc1c(F)c(F)c2nc(SCC3CCCO3)nc(N)c2c1F (stereo not drawn) | cell growth or viability, MTT | 96 h | 24.1 µM
CC1(C)[C@@H](O)CC[C@]2(C)[C@H]3C(=O)C=C4[C@@H]5C[C@@](C)(C(=O)O)CC[C@]5(C)CC[C@@]4(C)[C@]3(C)CC[C@@H]12 | cell growth or viability, MTT |  | > 40 µM
CC(=O)OC[C@]1(C)CCC[C@]2(CO)[C@@H]1CC[C@@]13C[C@@H](C[C@H](O)[C@H]12)[C@H](C)C3=O | cell growth or viability, MTT |  | > 20 µM
[Cl][Cu][Cl].c1ccc(-c2nnc(-c3ccc4c(c3)OCO4)[nH]2)nc1 | cell growth or viability, MTT | 24 h | 4.23 µM
OCCn1ncc2c(Nc3ccc(F)cc3)ncnc21 | cell growth or viability, MTT |  | > 50 µM
COc1cccc2cc(C(=O)NNc3nc(-c4ccccc4)cs3)c(=O)oc12 | cell growth or viability, SRB | 72 h | 116 µM
C=C1C(=O)[C@@]23CC[C@@H]4[C@](C)(COC(C)=O)CCC[C@@]4(CO)[C@@H]2[C@@H](O)C[C@@H]1C3 | cell growth or viability, MTT |  | 6 µM
N#Cc1cccc(-c2ccc(=O)n(Cc3cccc(-c4ncc(OCC5CCN(CCCCC(=O)Nc6cccc7c6C(=O)N(C6CCC(=O)NC6=O)C7=O)CC5)cn4)c3)n2)c1 (stereo not drawn) | cell growth or viability, CCK-8 | 72 h | 0.399 µM
Cc1ccc2nc(Cl)c(-c3nc4ccccc4[nH]3)cc2c1 | cell growth or viability, MTT | 48 h | > 100 µM
C/C(=N\N=C1/NC(=O)CS1)c1c(O)c2ccccc2oc1=O | cell growth or viability, MTT | 48 h | 97.7 µM
Nc1nc(-c2ccc(NC(=O)c3cc(Cl)cc(Cl)c3)cc2)c[nH]1 | cell growth or viability, XTT | 24 h | 62.8 µM
C[C@@H]1O[C@@H](O[C@H]2[C@H](O[C@H]3CC[C@@]4(C)C(CC[C@]5(C)C4CC=C4C6CC(C)(C)CC[C@]6(C(=O)O[C@@H]6O[C@H](CO)[C@@H](O)[C@H](O)[C@H]6O)CC[C@]45C)[C@]3(C)CO)OC[C@H](O)[C@@H]2O)[C@H](O)[C@H](O[C@@H]2OC[C@@H](O)[C@H](O)[C@H]2O)[C@H]1O (stereo partly drawn) | cell growth or viability, CCK-8 | 24 h | > 50 µM
Clc1ccc2[nH]c(-c3cc4cc5c(cc4nc3Cl)OCO5)nc2c1 | cell growth or viability, MTT | 48 h | > 100 µM

Some of these lines once more:
SMILES | assay | conditions | IC50
CC(=O)OC[C@H]1O[C@@H](N2C(=O)/C(=C/c3ccc4c(c3)OCCO4)SC2=S)[C@H](OC(C)=O)[C@@H](OC(C)=O)[C@@H]1OC(C)=O | cell growth or viability, MTT | 48 h | 11.3 µM
CC(=O)[O-].O.O.[O-]c1ccc(Br)cc1C=NCCN1CCOCC1.[Zn+2] | cell viability, MTT | 72 h | 33.5 µg/mL
CCOC(=O)CS/C(Nc1ccccc1)=C(\C#N)C(=O)Nc1nnc(NC(=O)c2ccccc2)s1 | cell growth or viability, MTT | 48 h | 52.9 µM
COc1ccc2c(c1)OCc1c-2oc2cc3c(cc12)OCO3 | cell growth or viability, MTT | 72 h | 25.4 µM
C=C1C(=O)[C@@]23CC[C@@H]4[C@](C)(COC(C)=O)CCC[C@@]4(CO)[C@@H]2[C@@H](O)C[C@@H]1C3 | cell growth or viability, MTT |  | 6 µM
C[C@@H]1O[C@@H](O[C@H]2[C@H](O[C@H]3CC[C@@]4(C)C(CC[C@]5(C)C4CC=C4C6CC(C)(C)CC[C@]6(C(=O)O[C@@H]6O[C@H](CO)[C@@H](O)[C@H](O)[C@H]6O)CC[C@]45C)[C@]3(C)CO)OC[C@H](O)[C@@H]2O)[C@H](O)[C@H](O[C@@H]2OC[C@@H](O)[C@H](O)[C@H]2O)[C@H]1O (stereo partly drawn) | cell growth or viability, CCK-8 | 24 h | > 50 µM
NC(=S)NNC(=O)c1cc2c(ccc3ccccc32)oc1=O | cell growth or viability, SRB | 72 h | 6.9 µM
